Assay results from different studies.
Parts stem from different laboratories: compare values within a part only. Substitutions count along the parent as printed.

Sample 1 — technique: protein binding microarray; molecule type: double-stranded DNA, one strand shown; matrix: in vitro; concentration: not given; baseline: not given; reading: higher = stronger binding; measurement: E-score
Target: Histone acetyltransferase KAT6A, winged helix 1, GST fusion (KAT6A, Homo sapiens, UniProt Q92794, residues 1-85)
Setting: 8-mer, flanks averaged, mean of 2 arrays, mostly near background
Residues (chain): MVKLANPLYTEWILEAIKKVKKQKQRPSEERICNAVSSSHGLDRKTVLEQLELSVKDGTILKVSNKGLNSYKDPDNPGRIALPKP
CCTTCTAG: -0.109
CCTAATCA: -0.138
CTCGTGTA: -0.0675
GGTGAACA: -0.23
CAATGGCA: -0.079

Sample 2 — technique: RNA Bind-n-Seq; molecule type: RNA; matrix: in vitro; concentration: 1 µM; setting: whole 134-nt RNA, ends assumed; with: 150 mM KCl; baseline: input library; reading: higher = stronger binding; measurement: log2 enrichment
Target: Ras GTPase-activating protein-binding protein 1, C-terminal RGG region (G3BP1, Homo sapiens, UniProt Q13283)
UniProt Q13283, sequence (whole entry, looked up): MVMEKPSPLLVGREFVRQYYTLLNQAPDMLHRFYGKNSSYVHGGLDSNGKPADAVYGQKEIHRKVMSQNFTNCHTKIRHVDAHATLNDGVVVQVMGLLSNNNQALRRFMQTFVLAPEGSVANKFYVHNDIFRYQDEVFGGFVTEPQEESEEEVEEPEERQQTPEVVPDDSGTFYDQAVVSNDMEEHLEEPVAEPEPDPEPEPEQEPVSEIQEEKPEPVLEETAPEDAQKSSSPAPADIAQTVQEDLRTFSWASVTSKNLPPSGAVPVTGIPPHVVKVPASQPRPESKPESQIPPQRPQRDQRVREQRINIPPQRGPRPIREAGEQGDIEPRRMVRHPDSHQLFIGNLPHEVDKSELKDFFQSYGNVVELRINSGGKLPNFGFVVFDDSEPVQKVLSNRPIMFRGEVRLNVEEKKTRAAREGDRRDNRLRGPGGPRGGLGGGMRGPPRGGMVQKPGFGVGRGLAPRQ
Constant ends, left off below: GGGAGUUCUACAGUCCGACGAUC … UGGAAUUCUCGGGUGUCAAGG
CAAGUCCUGUGCUACACAUCGUAUGUACCGAAUCGGAAAAGGAAAAGGGGAAAAGGAAAGUAUUAUGUUACGCCGUUCGGAUCUGCACUU: -1.78
CAAGUCCUGUGCUACACAUCGUAUGUACCGAAUCGGUUUUGGUUUUGGUUUUGGGAAAGUAUUAUGUUACGCCGUUCGGAUCUGCACUUC: -1.72
CAAGUCCUGUGCUACACAUCGUAUGUACCGAAUCGGGAAAGGGGAAAGGGGAAAGGAAAGUAUUAUGUUACGCCGUUCGGAUCUGCACUU: -1.24
UGGGAGGUGGAUCUUGUUUAUUUUUUUAGCUCAUUUCCAGGGGUGGGAAUUUUUUUUUAAUAUGUGUCAUGAAUAAAGUUGUUUUUGAAA: 3.03
CCUGUGCUACACAUCGUAUGUACCGAAUCGGGGAAAAAAAGGGGUUUUUGGGGAAAGGGGAAAGUAUUAUGUUACGCCGUUCGGAUCUGC: 0.839
UUCAGUUGGAUGGAUUUAUUGCUCGAAACUGGGCCAAUCAAAGAUCAGCUUUGGGAAGUGCUCUUGAUCCACUUGCUGAUAAAAUACUUA: -1.52

Sample 3 — target: CCNE2, cyclin fold, Cln2 fusion (human); technique: yeast growth competition, sequencing; matrix: yeast; setting: weak parent motif; baseline: not given; reading: higher = stronger binding; measurement: normalised enrichment score
Starting sequence: CDC6 docking peptide (human); TLKGRRLVFDNQL; partner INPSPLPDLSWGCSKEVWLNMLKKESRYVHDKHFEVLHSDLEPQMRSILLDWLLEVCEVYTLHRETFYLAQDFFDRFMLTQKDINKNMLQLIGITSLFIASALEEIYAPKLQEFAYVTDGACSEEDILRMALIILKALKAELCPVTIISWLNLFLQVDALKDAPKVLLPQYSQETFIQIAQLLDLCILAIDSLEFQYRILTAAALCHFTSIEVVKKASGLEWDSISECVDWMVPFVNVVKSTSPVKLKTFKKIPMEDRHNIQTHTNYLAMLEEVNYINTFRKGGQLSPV
K3Y: 0.89
K3M: -0.0478
L7G: 0.816
D10I: 0.58
R6L: 0.131
D10S: 0.405

Other studies, line by line
PhoQ, residues 284 288 289 292 302 303 SSCLAV
fold induction (PhoP, residues 12 14 15 18 19 LWHVM (Escherichia coli, UniProt P23836); Sort-seq, item: YFP reporter; E. coli; PhoQ-PhoP variant library, with: 10 µM Mg2+; baseline: high Mg2+ state, higher = stronger signaling): 3.99
